Measured values gathered from unrelated publications.
A part holds a random share of what one study measured. Changes are numbered by the printed parent chain.

Study 1
Target: RNA binding protein fox-1 homolog 2, RRM domain, GST-SBP tag (RBFOX2, Homo sapiens, UniProt O43251-10, residues 100-194)
Technique: RNA Bind-n-Seq
Molecule type: RNA
Matrix: in vitro
Tested at: 365 nM
Setting: natural RNA segment, single round, ends assumed
Relative to: no-protein control
Reading: higher = stronger binding
Shared flanks, not repeated: GGGAGUUCUACAGUCCGACGAUC … UGGAAUUCUCGGGUGCCAA
Target sequence (chain): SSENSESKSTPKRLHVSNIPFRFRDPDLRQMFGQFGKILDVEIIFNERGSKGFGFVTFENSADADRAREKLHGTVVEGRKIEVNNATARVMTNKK
Sequence | RBNS enrichment (R)
CUCAGCCUCCCAAGUAGCUGAGAUUACAGGCGCCUGCCACCCCACCUGGCUGAUUUUUGUAAUUUUAGUAGAGACGGGGUUUCACCAUGUUGGCCAGGCUGAUUAACUCC | 0.342
CAGCUGGGCUCCCUUUGUCAGAGUCAAUGGAUGAUGCUUCCAGGACAAAUCGGCUUCCUCUCCCCACCCUCCUGCCACUCUAAGUAUUGAAUGUACUUUGUAUAAUUUUA | 1.52
AGAGAACUGAUUUCCUAGCAUUCUUCCCUAGUAAAAUCUUUCCCAAUAGAACAGUAUGUUCCCUUAAACCCAAAUGAACAUCACGCUACUUUCUUUUACCUGUGGCAAAG | 0.469
UUCGAAAGCUAAUAUCCCAGAAGAGCGACAGACAGAGGAGGUGACUACAUGUAAGACAUAUGUUACUGUGUGGAGGACAUAAAACUUUUCAGUUCUGGGGUGGCCAUUGC | 0.385
UCAGUGCUCUCUAUUGAUGUUCUUGCUGGUCUCCAGACACAUUCCUGUUGCAUUAAGACUUGAAAGACUUGUAGAUGUGUGAUGUUCAGGCACAGGAUGCUGAAAGCUAU | 1.4
AAAUUACCAAGUUUGGUUUUUAAUAAUUUCACAAUAUUAUGCGCCAAGAUCUAAUUUUAAAAAUGUACGAGGACUUUGUGCUGAAAAUACAGAGUAUUUUUUUAAAGUAA | 0.525
AACCUGCUAGUGCACAGGCUGUACUUUAGGUACUUAAAAUAUGCACUAGAAUAAAUUUGCAAGGCCCUAAAAUAUCACUGUUAUUUUUGGAGUAAUUCAGUAUAGGUUCG | 0.357
CUACUCUUGUGUUUAGGGGAUGGUGGGAACAUAUCCCAGUGCCCUUGCCUCAUAAUAGAUGUGGUGACUCUCCCGGUAGACCCUAGCAAGGGUCCUCCAUGGUGGUGAGG | 0.174
UUUUAGAAAAGGGAGUCUGUUCCAGAUCAGUGCCAGAACUGUGCCCAGGCCCAAAGGAGACAACUAACUAAAGUAGUGAGAUAGAUUCUAAGGGCAAACAUUUUUCCAAG | 0.289
GGGACCUCUGUUUCUUCGGCUGUUGGAACCUUGAAAUGACCAGAAAGUAGGACAUGUGCAGUCCCACCUGCAUCCAGUGUGGCUCUCUCCAUGGAGACUUGCUCUUCUUC | 0.511
UCUUUUAAGUAAGUUCCAAGAUCCAUGAAUUAACAGAGGCAUAUAUUUAAAAUGAAAUUUAAUGAGCACUUAGUGACUUCAUUUGUUCAAGAAUAUUUGAUUUCCUAUUG | 0.269
AUUUAUUUCUGUUUGAAUUUGAAACAGUGUUAUGCUUACAAGACUUCAUAAUGAUUUUAUGUCUUGCUUUAAAGAUAGUACCUGCAGAAUAGUUUUUGAAUACACCCACA | 0.921

Study 2
Target: ABI1, truncated, D143A, DHFR fusion (Arabidopsis thaliana, UniProt P49597)
Technique: DHFR PCA, dose-response
Matrix: yeast
Setting: Hill fit, mean, not affinity
Together with: (+)-ABA, dose series
Reading: lower = more sensitive
Starting sequence: PYL1, truncated, DHFR fusion (Arabidopsis thaliana, UniProt Q8VZS8); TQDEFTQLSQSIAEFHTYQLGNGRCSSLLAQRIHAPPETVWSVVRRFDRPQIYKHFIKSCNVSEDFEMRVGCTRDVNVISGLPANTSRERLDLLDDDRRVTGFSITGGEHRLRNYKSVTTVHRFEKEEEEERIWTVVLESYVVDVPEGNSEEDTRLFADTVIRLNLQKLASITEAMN
Variant | ABA EC50 [µM]
D97A | 2.45
V100Y | 96.7
A175M | 2.18
S59L | 45.5
Q10K | 2.94
E130G | 2.63
L93E | 12.7
S87T | 104
S59T | 1.71
S63V | 3.5
V76H | 677
S63M | 3.98
F56S | 837
E131M | 2.69
R98D | 42.8
D48T | 172
V100L | 16.7
E174W | 69.9
T73M | 1.6
H122T | 163
R90Q | 5.29
S42L | 15.6

Study 3
Target: JDP2, bZIP domain (human)
Technique: DHFR protein complementation
Matrix: yeast
Setting: single substitutions, most at no-binding floor
Relative to: wild-type JUN-FOS pair
Reading: higher = stronger binding
Starting sequence: JUN, bZIP domain (human); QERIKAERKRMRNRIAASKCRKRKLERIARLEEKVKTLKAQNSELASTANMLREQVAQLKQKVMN; partner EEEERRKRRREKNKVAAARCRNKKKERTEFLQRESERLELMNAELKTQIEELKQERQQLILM
Variant | binding fitness
K39T | 0.315 natural log
S43L | 0.254 natural log
E44Y | 0.133 natural log
L52C | -0.0338 natural log
L45P | -1.14 natural log
R53M | 0.217 natural log
L38T | -0.000648 natural log
L45G | -0.384 natural log
A49K | 0.212 natural log
M51H | 0.258 natural log
K39D | 0.302 natural log
E32W | 0.12 natural log
M51V | 0.25 natural log

Study 4
Target: UBE2S UBC core domain (UniProt Q16763)
Technique: yeast two-hybrid
Matrix: yeast
Setting: mostly zero background
Relative to: not given
Reading: higher = stronger interaction
B1: TRIM13 RING domain (UniProt O60858); chain MELLEEDLTCPICCSLFDDPRVLPCSHNFCKKCLEGILEGSVRNSLWRPAPFKCPTCRKETSATGINS
B2: RNF38 RING domain (UniProt Q9H0F5); chain PNNHQSEQTLCVVCMCDFESRQLLRVLPCNHEFHAKCVDKWLKANRTCPICRADASEVHRDS
B3: TRIM5 RING domain (UniProt Q9C035); chain LREVKLSPEGQKVDHCARHGEKLLLFCQEDGKVICWLCERSQEHRGHHTFLTEEVAREYQVKL
B4: TRAF5 RING domain (UniProt O00463); chain FVERLEERYKCAFCHSVLHNPHQTGCGHRFCQHCILSLRELNTVPICPVDKEVIKSQEVFK
B5: RC3H1 RING domain (UniProt Q5TC82); chain QAPQWTDFLSCPICTQTFDETIRKPISLGCGHTVCKMCLNKLHRKACPFDQTTINTDIELL
B6: TRIM4 RING domain (UniProt Q9C037); chain EAEDIQEELTCPICLDYFQDPVSIECGHNFCRGCLHRNWAPGGGPFPCPECRHPSAPAALRP
Target sequence (chain): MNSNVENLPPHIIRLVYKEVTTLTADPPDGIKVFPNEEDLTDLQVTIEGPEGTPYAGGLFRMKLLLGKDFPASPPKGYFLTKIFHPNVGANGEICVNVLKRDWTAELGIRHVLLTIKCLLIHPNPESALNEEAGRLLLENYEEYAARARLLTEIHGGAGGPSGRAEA
Molecule | lacZ reporter activity
B1 (TRIM13 RING domain) | 0
B2 (RNF38 RING domain) | 0
QVDKAVFHMQSVKCLKCQEQKRAVLPCQHAALCELCAEGSECPICQPGRAHTLQS (UNK RING domain (UniProt Q9C0B0)) | 0
B3 (TRIM5 RING domain) | 0
B4 (TRAF5 RING domain) | 0
B5 (RC3H1 RING domain) | 0
PAELEVQASECVVCLEREAQMIFLNCGHVCCCQQCCQPLRTCPLCRQDIAQRLRIY (LRSAM1 RING domain (UniProt Q6UWE0)) | 0
B6 (TRIM4 RING domain) | 0

Study 5
Target: Histone acetyltransferase KAT6A, winged helix 1, GST fusion (KAT6A, Homo sapiens, UniProt Q92794, residues 1-85)
Technique: protein binding microarray
Molecule type: double-stranded DNA, one strand shown
Matrix: in vitro
Tested at: not given
Setting: 8-mer, flanks averaged, mean of 2 arrays, mostly near background
Relative to: not given
Reading: higher = stronger binding
Residues (chain): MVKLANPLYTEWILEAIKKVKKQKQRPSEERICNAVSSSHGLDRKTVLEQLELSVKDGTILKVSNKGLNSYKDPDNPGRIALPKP
Sequence | E-score
CTTCGGCC | 0.074
CTTGCTCC | -0.246
ATGATAAC | -0.152
GACTGTTA | -0.0112
CCCTCGAA | -0.0842
AGGAAAGA | -0.12
ACGCTCAT | -0.0497
AATTGGAT | -0.172
CCGGCGTA | 0.381
ACTATTGG | 0.142
ACCGGAGG | 0.119
GGTCAACA | -0.258
CAGGGTAA | -0.115
CATCATGG | -0.103
CCGTTGCA | 0.153
CCAAGACG | 0.0135
GCAGAACA | -0.0811
AGTAATAT | -0.029
TAAACAAA | -0.125
TCTCAAAA | -0.215
AACCTCAA | -0.14
CCGTTTGC | 0.235
GAAATGAC | -0.0619

Study 6
Target: Sal-like protein 4, full length isoform A (SALL4, Homo sapiens, UniProt Q9UJQ4, residues 1-1053)
UniProt Q9UJQ4, sequence (whole entry, looked up): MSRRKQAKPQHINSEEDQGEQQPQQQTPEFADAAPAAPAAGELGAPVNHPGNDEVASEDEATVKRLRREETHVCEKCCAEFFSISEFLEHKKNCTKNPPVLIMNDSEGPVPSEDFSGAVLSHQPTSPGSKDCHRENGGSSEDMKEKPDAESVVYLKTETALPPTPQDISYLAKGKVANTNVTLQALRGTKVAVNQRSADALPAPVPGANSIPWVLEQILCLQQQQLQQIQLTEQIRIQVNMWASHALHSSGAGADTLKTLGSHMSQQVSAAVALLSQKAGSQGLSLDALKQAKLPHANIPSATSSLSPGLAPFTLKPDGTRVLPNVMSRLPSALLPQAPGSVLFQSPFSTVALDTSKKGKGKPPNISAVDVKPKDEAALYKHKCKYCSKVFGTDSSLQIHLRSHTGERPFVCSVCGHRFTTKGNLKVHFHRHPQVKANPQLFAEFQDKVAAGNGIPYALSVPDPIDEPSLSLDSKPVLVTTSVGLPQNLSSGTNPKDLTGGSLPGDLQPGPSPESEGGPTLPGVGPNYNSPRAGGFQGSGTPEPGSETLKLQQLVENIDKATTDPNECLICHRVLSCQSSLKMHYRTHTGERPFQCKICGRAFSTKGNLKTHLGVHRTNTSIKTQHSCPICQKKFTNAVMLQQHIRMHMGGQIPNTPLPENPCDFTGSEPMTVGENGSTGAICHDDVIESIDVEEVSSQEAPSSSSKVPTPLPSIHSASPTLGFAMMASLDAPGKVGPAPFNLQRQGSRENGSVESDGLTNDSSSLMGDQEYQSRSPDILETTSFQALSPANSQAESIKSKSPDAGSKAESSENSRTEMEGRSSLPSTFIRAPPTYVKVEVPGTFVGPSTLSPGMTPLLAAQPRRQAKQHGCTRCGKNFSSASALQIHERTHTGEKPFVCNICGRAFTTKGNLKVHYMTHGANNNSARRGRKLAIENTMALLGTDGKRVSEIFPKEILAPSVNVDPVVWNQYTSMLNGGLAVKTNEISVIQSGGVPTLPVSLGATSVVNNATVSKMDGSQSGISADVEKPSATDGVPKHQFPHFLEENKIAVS
Technique: universal PBM
Molecule type: double-stranded DNA, one strand shown
Matrix: in vitro
Tested at: 600 nM
Setting: 8-mer, flanks averaged, mean of replicates
Reading: higher = stronger binding
Sequence | E-score
AGCTGAAA | 0.181
AGTCTATC | -0.0105
AACGCACG | 0.0611
ATGGCCGG | -0.189
CTGTTACC | -0.0383
CGTAGATA | 0.14
TACTGGGA | 0.0585
CCCACCTC | -0.21
ATTGACCG | -0.0137
TAGAACCA | 0.109
CTGGTCGC | -0.185
ACATACCC | 0.124
CATCCTGC | -0.014
GGATCCCC | -0.305
AAGTCATA | 0.319
AGCTGAAC | -0.289
ATGACTGA | 0.145
ACAACAGT | 0.0405
GGTTCCCA | -0.258

Study 7
Target: CCNB3, cyclin fold, Cln2 fusion (human)
Technique: yeast growth competition, sequencing
Matrix: yeast
Setting: weak parent motif
Relative to: not given
Reading: higher = stronger binding
Starting sequence: PKMYT1 docking peptide (human); SFEPRNLLSLFED
Variant | normalised enrichment score
L7K | 0.279
F2E | 0.0429
N6T | 0.563
D13I | 0.843
P4Q | 0.803
N6P | 0.346
F2D | 0.449
F11G | 0.129
L10C | 0.3
R5E | 0.789
P4T | 0.451
L10D | 0.64
E12K | 0.194
L8W | 0.419
L8I | 0.539
P4N | 0.00104
D13Q | 0.225
L7Q | -0.15
N6L | 0.533
L8V | -0.334
L7R | 0.0824

Excerpt of the above (study 6):
Sequence | E-score
AGCTGAAA | 0.181
AGTCTATC | -0.0105
AACGCACG | 0.0611
ATGGCCGG | -0.189
CTGTTACC | -0.0383
CGTAGATA | 0.14
TACTGGGA | 0.0585
CCCACCTC | -0.21
ATTGACCG | -0.0137
TAGAACCA | 0.109
CTGGTCGC | -0.185
ACATACCC | 0.124
CATCCTGC | -0.014
GGATCCCC | -0.305
AAGTCATA | 0.319
AGCTGAAC | -0.289
ATGACTGA | 0.145
ACAACAGT | 0.0405
GGTTCCCA | -0.258
